Measured values from different studies.
Each line is one published result; not all experiments were run side by side. Several values in a cell are separate wells, animals, samples, runs or records. ± marks the error that the study gave.

`O=C(c1nc2n(n1)[C@H](c1ccccc1)C[C@@H]2F)C1CC1` gave a renal clearance of 0.185 mL/min (human; 25 mg single dose, mean).
`CC(C)C[C@H](NC(=O)[C@@H](Cc1c[nH]c2ccccc12)NC(=O)[C@H](Cc1ccc(O)cc1)NC(=O)[C@H](CO)NC(=O)[C@H](Cc1c[nH]c2ccccc12)NC(=O)[C@H](Cc1c[nH]cn1)NC(=O)[C@@H]1CCC(=O)N1)C(=O)N[C@@H](CCCNC(=N)N)C(=O)N1CCC[C@H]1C(=O)NCC(N)=O`: “patients, drug-related Overweight TEAEs” 25% (Chinese CPP boys; intramuscular, 22.5 mg, 12 months, day 1, month 6).
`CC(C)(Sc1ccncc1-c1ccc(C#N)c2ccccc12)C(=O)O`: “amount excreted in urine (0-24 h)” 31.6 µg (human, urine; oral, 2.5 mg, together with: febuxostat 10 mg).
`N#Cc1ccc2c(c1)[C@H]1CCCN(C(=O)c3ccc4[nH]cnc4c3)[C@H]1C2`: “total testosterone level” 0.8 nmol/L (human females; 160 mg, end of trial).
`Cc1c(-c2ccc(N3CCc4cccc(C(=O)Nc5nc6ccccc6s5)c4C3)nc2C(=O)O)cnn1CC12CC3(C)CC(C)(C1)CC(OCCNCC[C@H](O)CO)(C3)C2` — result for “systemic vascular resistance change”: 12% (anaesthetised male beagle dogs; intravenous infusion, 0.3 mg/kg/min, 15 min; reference: vehicle).
`O=C(O)CSc1nnc(Br)n1-c1ccc(C2CC2)c2ccccc12` has a body weight of 38.4 g and 31.3 g and 29 g and 34.6 g and 36 g and 34.9 g (KM mouse, chronic hyperuricaemia model; dose not given, day 19).
With `O=C(O)CCC(=O)O.[2H]C([2H])([2H])Oc1cc(C)c2[nH]ccc2c1CN1CC[C@@H](C2CC2)C[C@H]1c1ccc(C(=O)O)cc1` the Vss/F was 95.4 L (human, plasma; 100 mg twice daily, day 10, multiple ascending dose).
Under “urinary sodium excretion change”, `Cc1ccc([C@@H]2O[C@H](CO)[C@@H](O)[C@H](O)[C@H]2O)cc1Cc1ccc(-c2ccc(F)cc2)s1` is recorded as -57.6 mEq (Japanese type 2 diabetes patients; 25 mg, day 17, 24 h urine collection; reference: baseline).
`COc1cccc(OC)c1-c1cc(C(=O)NC2(C(=O)O)C3CC4CC(C3)CC2C4)nn1-c1ccc(C(=O)N(C)CCCN(C)CCCN(C)C(=O)CN2CCN(CC(=O)[O-])CCN(CC(=O)[O-])CCN(CC(=O)[O-])CC2)cc1C(C)C.[177Lu+3]` (stereo not drawn) has a tissue uptake of 0.19 %ID/g (mouse, HT-29 xenograft, spleen; 24 h post injection).
`CCn1c(=O)c(-c2cc(NC(=O)Nc3ccccc3)c(F)cc2Br)cc2cnc(NC)cc21`: “participants with grade ≥ 3 TEAE” 37.5% (measured: lipase increased; human, mild hepatic impairment; oral, 50 mg single dose).
With `COc1cc([C@H]2OC[C@H]3[C@@H]2CO[C@@H]3c2ccc(O[C@@H]3O[C@H](CO)[C@@H](O)[C@H](O)[C@H]3O)c(OC)c2)ccc1O[C@@H]1O[C@H](CO)[C@@H](O)[C@H](O)[C@H]1O` the accuracy was 117% (post-procedure stability; rat plasma; 200 ng/mL, 3 h, room temperature).
With `Cl.[2H]C([2H])([2H])CC(=O)c1cnc(NC(=O)C2CC2)cc1Nc1cccc(-c2ncn(C([2H])([2H])[2H])n2)c1OC` the renal clearance was 0.89 to 1.68 mL/min (human; oral, 50 mg, single and multiple dose, geometric mean range).
With `CN(C(=O)n1cnc(-c2cccnc2)c1)[C@H]1CC[C@H](O)CC1` the tissue concentration was 14.3 ± 0.7 ng/g (rat, cortex; oral, 10 mg/kg daily for 5 days, 48 h).
For `O=C(c1cccnc1-c1ccncc1)N1CCC(O)(Cc2ccccc2)CC1`, the Cmax/dose was 2.04 ng/mL/mg (healthy Japanese adults, plasma; oral, 100 mg twice daily, day 7).
`COc1cc(C(=O)NC2CCN(C)CC2)c(F)cc1Nc1ncc(C(F)(F)F)c(Oc2cccc3c2C(=O)N(C)C3)n1` has a dose-normalised Cmax of 13.2 nmol/L per mg (human patients, plasma; oral, 100 mg single dose, geometric mean).
For `NC1(C(=O)N[C@@H](CCO)c2ccc(Cl)cc2)CCN(c2nc[nH]c3nccc2-3)CC1`, “incidence of Nausea” read 0% (metastatic CRPC patients; 320 mg b.i.d., grade 3 to 4, treatment-related, together with: enzalutamide 160 mg daily).
The accuracy of `CN1CC(=O)N2[C@H](c3ccc4c(c3)OCO4)c3[nH]c4ccccc4c3C[C@@H]2C1=O` is reported as 98.1% (human plasma; 400 ng/mL, 74 days, long-term storage -70 °C).
With `C=C[C@@](C)(/C=C/c1ccc(O)cc1)CCC=C(C)C` the accuracy was 94.7% (post-procedure stability; rat plasma; 200 ng/mL, 1 h, room temperature).
For `COc1cc2c3c(n(CCCN4CCOCC4)c(=O)c2cc1OC)-c1cc2c(cc1C3=O)OCO2`, the t1/2 was 354 ± 138 min (beagle dog, female, plasma; intravenous infusion, 50 mg/m^2, 1 h infusion, vehicle 1).
`Cc1nc2cccc(OCC(C)(C)C(=O)NC(C)C)c2c(N)c1C(=O)O` gave a PCE/NCE ratio of 0.82 (male Swiss albino CD-1 mouse, bone marrow; oral, 2000 mg/kg, 48 h).
`CC(C(=O)NCC(=O)NCC(CNC(=O)CNC(=O)C(C)N1CCN(CC(=O)[O-])CCN(CC(=O)[O-])CCN(CC(=O)[O-])CC1)(CNC(=O)CNC(=O)C(C)N1CCN(CC(=O)[O-])CCN(CC(=O)[O-])CCN(CC(=O)[O-])CC1)CNC(=O)CNC(=O)C(C)N1CCN(CC(=O)[O-])CCN(CC(=O)[O-])CCN(CC(=O)[O-])CC1)N1CCN(CC(=O)[O-])CCN(CC(=O)[O-])CCN(CC(=O)[O-])CC1.[Gd+3].[Gd+3].[Gd+3].[Gd+3]` (stereo not drawn) has a Tmax of 2 min (ICP-MS; cynomolgus monkey, plasma; intravenous bolus, first sample after dosing).
With `COc1nnc2ccc(N3CCC(c4ccc(OCCN5CCN(C)C(=O)[C@H]5C)cc4)CC3)nn12` the AUC(0-t) was 0.317 µM·h (patients, plasma; oral, 15 mg twice daily, multiple dose, monotherapy).
Under “serum RBC change”, `CCc1cc(C(=O)NC)c2nccc(N3CCc4c(cc(Cn5ccnc5)cc4-c4cn(C)nc4C(F)(F)F)C3=O)c2c1` is recorded as -1.82% (Sprague Dawley rats; oral, 100 mg/kg twice daily, 7 days; reference: vehicle).
For `CC(C)c1nc(N(C)S(C)(=O)=O)nc(-c2ccc(F)cc2)c1/C=C/[C@@H](O)C[C@@H](O)CC(=O)O`, “subjects with adverse event” read 4.5% (measured: vessel puncture site pain; healthy men; oral, dose not given, 8 days, treatment-emergent, crossover trial).
`NC/C(=C\F)COc1cccc(Cn2c(=S)[nH]c(=O)c3[nH]cnc32)c1` gave a remaining compound of 90% (rat liver microsomes; 1 µM, 1 h).
Under “subjects with keratitis TEAE”, `CC(C)(C(=O)N1CCOc2c(C#N)cncc2C1)C(F)F` is recorded as 16.7% (human, both sexes; oral, 30 mg single dose).
The dose-normalised Cmax of `CC(C)(C)c1ccc(O)c(CN(Cc2cc(C(C)(C)C)ccc2O)C2CCC(NC(N)=O)CC2)c1` (stereo not drawn) is reported as 55 ng/g per mg/kg (C57BL/6 mouse, male, brain; oral, 10 mg/kg).
`COCc1cc(C(=O)Nc2cc([C@H]3CC[C@@H](OC(=O)NC(C)C)C3)[nH]n2)n(C)n1` has an AUC(0-24h) of 3.53 µM·h (OVCAR-3 xenograft, NOD/SCID gamma mice, plasma; oral, 25 twice daily, tumour growth inhibition study).
`C=CC(=O)Nc1cc(Nc2nccc(-c3cn(C)c4ccccc34)n2)c(OC)cc1N(C)CCN(C)C` has a recovery of 78% (storage stability; human dried blood spots; 24 h, on ice, high QC level).
With `C/C=C/C(=O)Nc1ccc(-n2nc3c(=O)[nH]nc(N)c3c2-c2oc3ccc(C)cc3c2C)cc1` the remaining compound was 99.2% (BALB/c nude mouse, whole blood; 1 µM, 0.5 h, 37 °C).
`CC(C)(C)OC[C@@H]1C(=O)NCCN1C(=O)C[C@H](N)Cc1cc(F)c(F)cc1F` has a Vss/F of 1740 ± 410 L (healthy humans, plasma; oral, 5 mg, alone).
For `c1ccc2cc3ccccc3cc2c1`, “literature range factor” read 5 (PDMS-water partitioning; PAH compilation; reference: maximum over minimum K).
`COc1ccc(OCc2ccc([N+](=O)[O-])cc2)cc1-c1c[nH]c2ncc(-c3cncc(C(=O)N(C)C)c3)cc12` — result for chemical stability: “stable” (HPLC; PBS; 24 h, 37 °C).
`N#Cc1ccc2c(c1)[C@H]1CCCN(C(=O)c3ccc4[nH]cnc4c3)[C@H]1C2` — result for “pre-dose plasma concentration”: 1910 nmol/L (human, plasma; 240 mg once daily, day 14).
For `O=C(OC(C(F)(F)F)C(F)(F)F)N1CCN(Cc2cccc(Oc3ccccc3)c2)CC1`, the k2 was 9.47 min⁻¹ (PET blocking study; rhesus monkey, brain Pons; 0.1 mg/kg, compound pretreatment, together with: [18F]T-401 tracer).
Under “free brain Cmax”, `O=C(COc1ccc(N2C(=O)[C@@H]3[C@@H]4C=C[C@@H]([C@H]5C[C@@H]45)[C@@H]3C2=O)cc1)c1cc(Cl)cc(Cl)c1` is recorded as 14 nM (female CD-1 mice, brain; oral, 20 mg/kg).
`CNC(=O)c1ccc(-c2cnc3ncc(Cc4ccc5ncccc5c4)n3n2)cc1F`: “abdominal pain incidence” 18% (cancer patients; oral, dose not given, all grades dose escalation).
For `Cc1cc(-c2nccc3c2ccn3CC(=O)Nc2ccc(-c3cnccn3)cn2)ccn1`, “subjects with Cough adverse event” read 0% (human; 20 mg once daily, multiple ascending dose).
`N=C(N)NCCNC(=O)C1(Nc2ccccc2)CCN(Cc2ccccc2)CC1` — result for “apparent volume of distribution”: 0.2 L (male Sprague-Dawley rats, plasma; oral, 50 mg/kg).
Under “treatment-emergent adverse events”, `O=C(Nc1nc2cccc(-c3ccc(CN4CCS(=O)(=O)CC4)cc3)n2n1)C1CC1` is recorded as 0% (measured: food allergy; human rheumatoid arthritis patients; oral, 200 mg once daily, 4 weeks, regardless of relatedness).
For `C=CCn1c(=O)c2cnc(Nc3ccc(N4CCN(C)CC4)cc3)nc2n1-c1cccc(C(C)(C)O)n1`, the Tmax was 126 min (human; oral, 175 mg twice daily, cycle 1 day 17, together with: durvalumab 1500 mg IV; median).
With `Cn1cc(-c2ccc(S(=O)(=O)[C@@H]3C[C@@H](C(=O)NC4(C#N)CC4)N(C(=O)C4(C(F)(F)F)CC4)C3)c(C(F)(F)F)c2)cn1` the t_half was 497 min (noncompartmental analysis; human, plasma; oral, 50 mg, day 1, with food, geometric mean).
For `CCCC(CCC)C(=O)Oc1cccc(C(O)CCN)c1.O=CO` (stereo not drawn), “ERG, scotopic, rod b-wave” read 37.5 µV and 28.7 µV and 39.1 µV and 46.4 µV and 27.8 µV and 38.8 µV (Abca4-/-Rdh8-/- mice, photic damage; oral, 20 mg/kg, 7 days, flash intensity 0.002).
For `CCn1ccc(=O)c(O)c1C.Cl`, the partition coefficient was 0.04 ± 0.006 (shake-flask, measured: iron(III) complex; 1-octanol/Tris buffer; pH 7.4, ligand:iron 10:1).
The plasma concentration of `CNCCOC12CC3(C)CC(C)(CC(Cn4ncc(-c5ccc(N6CCc7cccc(C(=O)Nc8nc9ccccc9s8)c7C6)nc5C(=O)O)c4C)(C3)C1)C2` is reported as 0 ng/mL (anaesthetised male beagle dogs; intravenous bolus, 0.03 mg/kg, 90 min).
`CN[C@@H]1COc2c(S(=O)(=O)NC(=O)Nc3c4c(cc5c3CCC5)CCC4)cnn2C1` — result for “amount excreted in urine (0-48 h)”: 24.3 mg (human, urine; oral, 150 mg, 0-48 h).
`CCc1c(-c2ccccc2)c(-c2ccccc2)nn1-c1ccccc1-c1cccc(OCC(=O)O)c1` has a concentration of 1790 ng/g (female Sprague-Dawley rat, ovary; oral, 10 mg/kg, 4 h).
`O=C1NCCc2nc(OCc3cccc(F)c3)ccc21`: “Irwin test score” 0 (measured: Irritability; Sprague-Dawley rat male; oral, 100 mg/kg, 0 min; reference: baseline, direction not given).
`CC(=O)O[C@H]1C(=O)[C@@]2(C)[C@H]([C@H](OC(=O)c3ccccc3)[C@]3(O)C[C@H](OC(=O)[C@H](O)[C@@H](NC(=O)c4ccccc4)c4ccccc4)C(C)=C1C3(C)C)[C@]1(OC(C)=O)CO[C@@H]1C[C@@H]2O`: “adverse event incidence” 0% (measured: Pruritus; patients with advanced solid tumours; intravenous, dose not given, grade 3 and 4, possibly related to drug).
`Cn1cc([C@H]2C[C@H]3CSC(N)=N[C@@]3(c3ccc(F)cc3F)CO2)cn1` gave a brain concentration of 276 nM (male 129/SVE mouse, brain; subcutaneous, 10 mg/kg, 9 h).
For `C[Si](C)(C)O[Si](C)(C)O[Si](C)(C)O[Si](C)(C)O[Si](C)(C)C`, “whole-body biotransformation rate constant” read 0.0067 day⁻¹ and 0.01 day⁻¹ and 0.0097 day⁻¹ (IVIVE from S9; rainbow trout (Oncorhynchus mykiss)).
`NC(=O)c1cc(Oc2ccc(NC(=O)Nc3ccc(Cl)c(C(F)(F)F)c3)c(F)c2)cc[n+]1[O-]` has an accuracy of 100% (short-term stability; mouse plasma; 750 ng/mL, 8 h, room temperature).
`OC[C@H]1O[C@@H](c2ccc(Cl)c(Cc3ccc(O[C@H]4CCOC4)cc3)c2)[C@H](O)[C@@H](O)[C@@H]1O`: “change in Total cholesterol” 8.92 mg/dL (Japanese type 1 diabetes patients, blood; 25 mg, day 28; reference: baseline).
`C/C(O)=C(\C#N)C(=O)Nc1ccc(C(F)(F)F)cc1`: “free plasma concentration” 129 ± 36.6 µM (CD-1 mice female, plasma; oral, 10 mg/kg leflunomide daily, 8 h).
